Results gathered from unrelated publications.
Several values in a cell are separate wells, animals, samples, runs or records. Converted amounts (≈) assume the structure as drawn.

With CC(C)NCC(O)c1ccc(O)c(O)c1 (centres unmarked) the sarcomere length was 1.72 µm (ventricular cardiomyocytes, C57BL/6 mouse; dose not given, 0.424 s).
The Km of CN1C2CCCC1CC(NC(=O)c1nn(C)c3ccccc13)C2 (centres unmarked) is reported as 43.4 µM (H+/organic cation antiporter; cell uptake; hCMEC/D3).
Cn1cc(-c2ccc(-c3cncc(Cl)c3N3CCC4(CCNC4=O)CC3)cc2)cn1 — result for “log2 fold change”: 2.07 (COLO 205; gene expression, microarray, item: HSPA1B (HSPA1A) mRNA; concentration not given, 2 h; baseline: untreated cells).
For CCn1cc(-c2cc(Cn3ccoc3=N)cc3c2CCN([C@@H](C)c2cc(OC)ccn2)C3=O)c(C(F)(F)F)n1, the EC50 was 8.07 µM (ARH-77; cell growth, inhibitor; 120 h).
O=C(O)CNC(=O)Cc1ccccc1 gave a sarcomere length of 1.69 µm (ventricular cardiomyocytes, C57BL/6 mouse; dose not given, 0.616 s).
Under “log2 fold change”, Oc1ccccc1-c1n[nH]cc1-c1ccnc2ccccc12 is recorded as -0.16 (PTK2 (Candida albicans); kinase binding, MIB/MS competition; Candida albicans lysate; 1 µM; baseline: DMSO).
c1ccc(-c2n[nH]cc2-c2ccnc3ccccc23)nc1: “log2 fold change” 1.66 (kinase binding, competitor, MIB/MS competition, item: MKK2; Candida albicans cell lysate; 100 nM; baseline: DMSO).
CC[S+]([O-])c1nc(-c2ccccc2)cc(C(F)(F)F)n1 (centres unmarked) — result for “cells with nuclear reporter”: 73% and 88.1% and 60.7% and 72.1% (importin alpha/beta-1; cMyc nuclear import, high content imaging; HeLa Kyoto reporter; 1.58 µM, 2 h).
NC(=O)c1cnc2[nH]ccc2c1N[C@@H]1[C@@H]2CC3C[C@H]1C[C@@](O)(C3)C2 — result for “total memory T-cell change”: -0.93% (flow cytometry; Japanese healthy men, blood; oral, 100 mg twice daily, 72 h after day 7 dose; baseline: baseline).
OC(CCN1CCCCC1)(c1ccccc1)C1CC2C=CC1C2 (centres unmarked): “change in EEG Alpha2-power Fz-Cz” 15.6% (resting-state EEG; healthy elderly humans; oral, 2 mg, eyes closed, LS mean; baseline: baseline).
CCCN1CCCC[C@H]1C(=O)Nc1c(C)cccc1C has a Km of 50.6 µM (H+/organic cation antiporter; cell uptake; hCMEC/D3).
Under “log2 fold change”, c1coc(-c2n[nH]cc2-c2ccnc3ccccc23)c1 is recorded as -0.05 (CDC7 (Candida albicans); kinase binding, MIB/MS competition; Candida albicans lysate; 10 µM; baseline: DMSO).
CCn1cc(-c2cc(Cn3ccnc3)cc3c2CCN([C@H](c2cc(OC)ccn2)C2CC2)C3=O)c(C(F)(F)F)n1 has an EC50 of > 30 µM (HEC-50B; cell growth, inhibitor; 120 h).
CN[C@H](CC(C)C)C(=O)N[C@H]1C(=O)N[C@@H](CC(N)=O)C(=O)N[C@H]2C(=O)N[C@H]3C(=O)N[C@H](C(=O)N[C@H](C(=O)O)c4cc(O)cc(O)c4-c4cc3ccc4O)[C@H](O)c3ccc(c(Cl)c3)Oc3cc2cc(c3O[C@@H]2O[C@H](CO)[C@@H](O)[C@H](O)[C@H]2O[C@H]2C[C@](C)(N)[C@H](O)[C@H](C)O2)Oc2ccc(cc2Cl)[C@H]1O gave an MIC50 of 0.5 µg/mL (≈ 0.345 µM) (Streptococcus pyogenes; 10 isolates; serum 50%).

A few entries again:
Under “log2 fold change”, c1coc(-c2n[nH]cc2-c2ccnc3ccccc23)c1 is recorded as -0.05 (CDC7 (Candida albicans); kinase binding, MIB/MS competition; Candida albicans lysate; 10 µM; baseline: DMSO).
CCn1cc(-c2cc(Cn3ccnc3)cc3c2CCN([C@H](c2cc(OC)ccn2)C2CC2)C3=O)c(C(F)(F)F)n1 has an EC50 of > 30 µM (HEC-50B; cell growth, inhibitor; 120 h).
